Measurements gathered from unrelated publications.
A part holds a random share of what one study measured.
Chain of UniProt Q8IU85 (whole entry, looked up): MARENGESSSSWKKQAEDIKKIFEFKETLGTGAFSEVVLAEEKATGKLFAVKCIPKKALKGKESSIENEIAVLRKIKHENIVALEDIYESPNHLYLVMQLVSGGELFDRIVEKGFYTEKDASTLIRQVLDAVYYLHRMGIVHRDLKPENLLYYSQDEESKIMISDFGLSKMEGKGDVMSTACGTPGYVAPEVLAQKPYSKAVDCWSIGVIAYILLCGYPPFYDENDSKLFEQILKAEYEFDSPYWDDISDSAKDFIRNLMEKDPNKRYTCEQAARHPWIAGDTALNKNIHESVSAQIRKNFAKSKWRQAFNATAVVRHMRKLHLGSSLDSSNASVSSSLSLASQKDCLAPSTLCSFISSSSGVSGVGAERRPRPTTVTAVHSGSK
Chain of UniProt Q8N4C8 (whole entry, looked up): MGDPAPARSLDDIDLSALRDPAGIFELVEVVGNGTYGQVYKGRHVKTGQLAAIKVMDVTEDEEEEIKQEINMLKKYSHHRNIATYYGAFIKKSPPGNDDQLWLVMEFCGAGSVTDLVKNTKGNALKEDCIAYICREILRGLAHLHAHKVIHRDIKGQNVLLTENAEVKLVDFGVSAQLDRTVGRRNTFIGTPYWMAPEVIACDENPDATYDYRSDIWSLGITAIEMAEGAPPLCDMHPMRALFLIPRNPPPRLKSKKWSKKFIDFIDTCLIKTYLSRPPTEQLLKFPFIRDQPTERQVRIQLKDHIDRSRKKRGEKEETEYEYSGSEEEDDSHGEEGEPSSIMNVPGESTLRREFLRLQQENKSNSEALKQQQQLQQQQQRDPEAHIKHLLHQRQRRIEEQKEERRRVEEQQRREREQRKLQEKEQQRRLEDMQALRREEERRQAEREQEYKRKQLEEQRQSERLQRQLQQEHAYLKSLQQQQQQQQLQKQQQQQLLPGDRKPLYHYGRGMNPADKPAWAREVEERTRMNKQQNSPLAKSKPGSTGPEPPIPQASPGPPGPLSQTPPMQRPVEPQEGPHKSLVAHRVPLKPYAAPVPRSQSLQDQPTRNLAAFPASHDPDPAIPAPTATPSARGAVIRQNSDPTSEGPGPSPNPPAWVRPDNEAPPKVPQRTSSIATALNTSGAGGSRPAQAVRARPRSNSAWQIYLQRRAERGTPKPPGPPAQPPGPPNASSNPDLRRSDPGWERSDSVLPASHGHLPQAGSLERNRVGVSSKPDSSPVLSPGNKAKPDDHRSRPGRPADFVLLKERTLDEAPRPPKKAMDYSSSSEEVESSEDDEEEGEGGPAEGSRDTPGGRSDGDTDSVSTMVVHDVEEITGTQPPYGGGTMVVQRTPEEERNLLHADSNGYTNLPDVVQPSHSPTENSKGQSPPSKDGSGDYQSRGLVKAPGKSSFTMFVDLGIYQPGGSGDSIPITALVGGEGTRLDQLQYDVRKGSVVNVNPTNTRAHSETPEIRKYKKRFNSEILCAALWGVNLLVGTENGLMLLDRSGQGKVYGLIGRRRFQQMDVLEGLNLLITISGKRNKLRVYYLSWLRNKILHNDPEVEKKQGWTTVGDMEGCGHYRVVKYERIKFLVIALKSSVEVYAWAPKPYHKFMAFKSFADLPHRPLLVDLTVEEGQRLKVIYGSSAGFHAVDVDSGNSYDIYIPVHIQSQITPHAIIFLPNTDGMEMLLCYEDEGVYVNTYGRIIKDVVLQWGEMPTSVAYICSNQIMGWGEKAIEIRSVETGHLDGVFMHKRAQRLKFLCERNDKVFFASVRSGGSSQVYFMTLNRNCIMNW
Chain of UniProt P10721 (whole entry, unmodified, looked up): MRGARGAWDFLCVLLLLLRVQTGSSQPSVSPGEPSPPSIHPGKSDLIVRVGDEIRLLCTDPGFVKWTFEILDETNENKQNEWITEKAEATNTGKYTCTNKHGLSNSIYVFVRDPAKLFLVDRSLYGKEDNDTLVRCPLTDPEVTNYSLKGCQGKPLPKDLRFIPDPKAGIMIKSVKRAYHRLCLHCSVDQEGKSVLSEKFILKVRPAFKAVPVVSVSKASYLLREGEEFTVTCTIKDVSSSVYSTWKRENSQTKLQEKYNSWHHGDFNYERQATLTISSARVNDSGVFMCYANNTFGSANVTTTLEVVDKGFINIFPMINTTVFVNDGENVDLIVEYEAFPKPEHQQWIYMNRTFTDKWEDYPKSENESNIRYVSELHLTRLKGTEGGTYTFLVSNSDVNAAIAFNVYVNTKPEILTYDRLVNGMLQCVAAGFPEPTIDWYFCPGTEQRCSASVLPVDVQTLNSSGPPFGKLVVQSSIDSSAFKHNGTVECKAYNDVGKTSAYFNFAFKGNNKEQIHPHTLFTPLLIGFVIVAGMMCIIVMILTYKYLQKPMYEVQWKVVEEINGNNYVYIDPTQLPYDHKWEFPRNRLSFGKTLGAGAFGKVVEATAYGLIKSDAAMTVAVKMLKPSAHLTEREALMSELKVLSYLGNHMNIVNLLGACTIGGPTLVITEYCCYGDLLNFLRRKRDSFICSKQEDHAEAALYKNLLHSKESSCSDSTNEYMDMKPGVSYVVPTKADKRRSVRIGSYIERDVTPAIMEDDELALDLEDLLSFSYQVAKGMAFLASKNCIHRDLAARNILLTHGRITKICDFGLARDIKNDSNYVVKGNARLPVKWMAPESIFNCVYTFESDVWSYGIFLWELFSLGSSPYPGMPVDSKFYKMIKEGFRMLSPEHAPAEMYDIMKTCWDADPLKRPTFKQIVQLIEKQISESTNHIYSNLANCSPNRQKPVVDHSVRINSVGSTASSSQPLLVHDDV
Chain of UniProt P51812 (whole entry, looked up): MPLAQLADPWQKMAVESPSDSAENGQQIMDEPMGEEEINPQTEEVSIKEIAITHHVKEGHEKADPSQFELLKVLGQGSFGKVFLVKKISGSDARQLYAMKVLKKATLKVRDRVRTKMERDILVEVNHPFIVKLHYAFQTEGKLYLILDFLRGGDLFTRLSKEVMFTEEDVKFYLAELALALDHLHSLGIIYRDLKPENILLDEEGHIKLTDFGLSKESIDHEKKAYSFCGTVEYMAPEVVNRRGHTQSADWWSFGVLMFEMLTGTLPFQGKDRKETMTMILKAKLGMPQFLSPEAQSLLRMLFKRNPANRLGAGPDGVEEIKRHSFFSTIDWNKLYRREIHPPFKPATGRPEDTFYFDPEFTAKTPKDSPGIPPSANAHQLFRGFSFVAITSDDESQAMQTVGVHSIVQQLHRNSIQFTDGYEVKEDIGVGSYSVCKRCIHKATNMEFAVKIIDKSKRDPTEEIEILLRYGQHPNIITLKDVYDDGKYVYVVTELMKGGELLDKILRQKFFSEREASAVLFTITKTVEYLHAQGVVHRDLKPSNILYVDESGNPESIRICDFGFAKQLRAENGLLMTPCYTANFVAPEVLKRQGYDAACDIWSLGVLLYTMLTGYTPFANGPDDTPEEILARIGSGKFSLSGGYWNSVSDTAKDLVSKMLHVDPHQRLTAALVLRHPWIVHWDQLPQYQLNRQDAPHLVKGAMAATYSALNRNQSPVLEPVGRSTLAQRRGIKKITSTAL

Series 1
Target: Serine/threonine-protein kinase PLK3 (PLK3, Homo sapiens, UniProt Q9H4B4)
Chain of UniProt Q9H4B4 (whole entry, looked up): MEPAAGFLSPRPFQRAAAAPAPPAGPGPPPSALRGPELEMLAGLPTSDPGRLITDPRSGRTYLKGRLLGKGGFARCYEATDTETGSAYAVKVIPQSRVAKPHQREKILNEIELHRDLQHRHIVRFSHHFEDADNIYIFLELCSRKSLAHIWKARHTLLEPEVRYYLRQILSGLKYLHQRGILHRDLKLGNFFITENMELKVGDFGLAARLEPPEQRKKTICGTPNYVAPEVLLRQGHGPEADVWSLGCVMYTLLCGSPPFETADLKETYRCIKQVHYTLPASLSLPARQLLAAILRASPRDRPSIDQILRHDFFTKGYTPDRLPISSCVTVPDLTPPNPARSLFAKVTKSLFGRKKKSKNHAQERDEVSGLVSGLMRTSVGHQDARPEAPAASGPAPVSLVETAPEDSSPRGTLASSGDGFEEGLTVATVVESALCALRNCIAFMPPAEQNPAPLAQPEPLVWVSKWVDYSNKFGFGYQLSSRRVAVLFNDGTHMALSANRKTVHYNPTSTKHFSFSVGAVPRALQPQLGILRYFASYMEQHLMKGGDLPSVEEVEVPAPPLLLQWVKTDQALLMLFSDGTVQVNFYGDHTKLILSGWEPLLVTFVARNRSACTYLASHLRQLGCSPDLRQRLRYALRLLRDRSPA
Effect on: enzyme activity
Action: inhibitor
Tested at: 0.5 µM
Relative to: control
Measurement: remaining activity
SMILES = Cn1sc(=O)n(Cc2ccccc2)c1=O; result = 99.1%
SMILES = Nc1ccc2ncnc(NCCc3ccc(Oc4ccccc4)cc3)c2c1; result = 98.7%
SMILES = COc1ccc(CNC(=O)Nc2ncc([N+](=O)[O-])s2)cc1; result = 101%
SMILES = O=c1c2ccccc2[nH]c(=S)n1CCN1CCC(=C(c2ccc(F)cc2)c2ccc(F)cc2)CC1; result = 96.2%
SMILES = Cc1ccc(Nc2nccc(N(C)c3ccc4c(C)n(C)nc4c3)n2)cc1S(N)(=O)=O; result = 101%
SMILES = Cc1ccc(NC(=O)c2ccc(CN3CCN(C)CC3)cc2)cc1Nc1nc(-c2cccnc2)cs1; result = 101%
SMILES = O=C(Nc1cccc(Nc2cc(Nc3cccc(C(F)(F)F)c3)ncn2)c1)C1CC1; result = 99.1%
SMILES = COc1cc2ncnc(Nc3ccc(Oc4ccccc4)cc3)c2cc1OC; result = 97.1%
SMILES = Nc1[nH]nc2nc3ccccc3nc12; result = 96.3%
SMILES = O=C1NC(=O)C(c2cn(CCCO)c3ncccc23)=C1c1cnccn1; result = 91.1%
SMILES = COc1cc2ncnc(Nc3ccc(F)c(Cl)c3)c2cc1OCCCN1CCOCC1; result = 103%
SMILES = COc1ccc(OC)c2c(=S)c3ccccc3[nH]c12; result = 99.8%

Series 2
Target: Ras GTPase-activating protein-binding protein 1, full length (G3BP1, Homo sapiens, UniProt Q13283)
Chain of UniProt Q13283 (whole entry, looked up): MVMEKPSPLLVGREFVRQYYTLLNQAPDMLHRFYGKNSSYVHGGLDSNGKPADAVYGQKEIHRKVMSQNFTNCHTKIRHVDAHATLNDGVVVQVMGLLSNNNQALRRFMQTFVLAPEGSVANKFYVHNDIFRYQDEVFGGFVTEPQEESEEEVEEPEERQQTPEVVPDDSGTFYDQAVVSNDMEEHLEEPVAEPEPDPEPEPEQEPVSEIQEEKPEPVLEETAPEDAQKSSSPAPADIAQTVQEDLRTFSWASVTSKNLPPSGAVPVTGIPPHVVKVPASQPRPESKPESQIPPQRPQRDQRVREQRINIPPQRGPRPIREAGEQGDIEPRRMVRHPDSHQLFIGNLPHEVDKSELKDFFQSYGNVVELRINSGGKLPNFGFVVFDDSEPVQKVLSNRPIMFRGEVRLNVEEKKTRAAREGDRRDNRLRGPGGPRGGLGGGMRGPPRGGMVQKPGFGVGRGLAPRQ
Technique: RNA Bind-n-Seq
Form: RNA
Matrix: in vitro
Tested at: 200 nM
Setting: whole 134-nt RNA, ends assumed
Added: 150 mM KCl
Relative to: input library
Direction: higher = stronger binding
Measurement: log2 enrichment
All sequences stand within: GGGAGUUCUACAGUCCGACGAUC … UGGAAUUCUCGGGUGUCAAGG
Sequence = CAAGUCCUGUGCUACACAUCGUAUGUACCGAAUCGGUUUUUGGUGGAAAAAAAGGAAAGUAUUAUGUUACGCCGUUCGGAUCUGCACUUC; result = -0.931
Sequence = CUCAAGUCCUGUGCUACACAUCGUAUGUACCGAAUCGGAGGUGGUUUUUUUGGAAAGUAUUAUGUUACGCCGUUCGGAUCUGCACUUCCA; result = -0.687
Sequence = AAGUCCUGUGCUACACAUCGUAUGUACCGAAUCGGGCCCCGGGGCCCCGGGCCCCGGAAAGUAUUAUGUUACGCCGUUCGGAUCUGCACU; result = 0.374
Sequence = CAAGUCCUGUGCUACACAUCGUAUGUACCGAAUCGGUUUGGAAAAAAAGGUUUGGAAAGUAUUAUGUUACGCCGUUCGGAUCUGCACUUC; result = -1.24
Sequence = UGGCCCUGGUGGCAUGCGGGGAGGAAGAGGUGGCCUCAUGGAUCGUGGUGGUCCCGGUGGAAUGUUCAGAGGUGGCCCUGGUGGAGACAG; result = 0.444
Sequence = CAAGUCCUGUGCUACACAUCGUAUGUACCGAAUCGGUUUUUGGUUUUUUUGGUGGAAAGUAUUAUGUUACGCCGUUCGGAUCUGCACUUC; result = -0.96
Sequence = AAGUCCUGUGCUACACAUCGUAUGUACCGAAUCGGUUUUGGGGUUUUGGUUUUGGGGAAAGUAUUAUGUUACGCCGUUCGGAUCUGCACU; result = -0.858
Sequence = ACCAUGCAGGUGGGCAUCUUUGGGAAGUGGGAAAAGGGGGGGAUAGGGAGGGGGGUAACACUUUGGGAACAGGUGGUCCCAGGUCGUUUC; result = 1.26

Series 3
SMILES: CS(=O)(=O)N1CCCC(NC(=O)[C@H](CCC2CCCCC2)NC(=O)c2ccc(CNc3ncnc4c3nnn4-c3ccccc3)cc2)C1 (stereo partly shown)
Effect on: cell-free assay
Technique: competition with immobilised ligand
Tested at: 0.1 µM
Measurement: remaining binding
target = MINK1 (Homo sapiens, UniProt Q8N4C8); result = 85%
target = Ribosomal protein S6 kinase alpha-3, N-terminal kinase domain (RPS6KA3, Homo sapiens, UniProt P51812); result = 100%
target = PLK3 (Homo sapiens, UniProt Q9H4B4); result = 100%
target = FLT3 (Homo sapiens, UniProt P36888, D835H); result = 94%
target = CAMK1D (Homo sapiens, UniProt Q8IU85); result = 97%
target = KIT (Homo sapiens, UniProt P10721, V559D); result = 93%

Series 4
Target: Centromere-binding protein 1, full length, N-terminal tag (CBF1, Saccharomyces cerevisiae, UniProt P17106, residues 1-351)
Chain of UniProt P17106 (whole entry, looked up): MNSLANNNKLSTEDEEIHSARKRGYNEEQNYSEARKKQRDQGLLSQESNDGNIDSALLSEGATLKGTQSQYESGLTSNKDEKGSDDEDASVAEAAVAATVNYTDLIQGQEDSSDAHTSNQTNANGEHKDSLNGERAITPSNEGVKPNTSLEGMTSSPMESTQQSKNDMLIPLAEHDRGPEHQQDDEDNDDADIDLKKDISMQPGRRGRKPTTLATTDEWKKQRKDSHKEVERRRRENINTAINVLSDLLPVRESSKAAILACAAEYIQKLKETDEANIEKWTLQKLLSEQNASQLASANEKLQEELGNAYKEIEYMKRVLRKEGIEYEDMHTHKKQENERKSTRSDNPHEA
Technique: protein-binding microarray
Form: double-stranded DNA, one strand shown
Matrix: in vitro
Tested at: 0.8 µM
Setting: whole 60-bp probe, no competitor
Direction: higher = stronger binding
Measurement: fluorescence intensity
All sequences stand within: … GTCTTGATTCGCTTGACGCTGCTG
Sequence = CTAAAAAGATAGGGTGAGGTGAGGTTCTCTGACTTC; result = 527 a.u.
Sequence = GAATAGTATATACGGCACGGGATATGGCATCTGTAG; result = 865 a.u.
Sequence = GAACCCGACCTTACAGGCGTGCACCGCGTAGTATAG; result = 496 a.u.
Sequence = GAATTTACCGTCAACCTGGTGATGGCGAGATATTAG; result = 486 a.u.
Sequence = GAAAAAGTTTCTGTTCACGTTTTCATGGCATTTTAG; result = 805 a.u.
Sequence = CTAGTCTTTATGTAGCACGTTAGTGAAGCATAATTC; result = 614 a.u.
Sequence = CTAAAGTGATCACGTGGTCAGACAGTTTTCCAGTTC; result = 30400 a.u.
Sequence = CCTAACTACTATAAGCACGTGTCATAGCTTCGTACA; result = 11000 a.u.
